Measurements pooled from the literature.
± gives the spread as reported.
Rhomboid protease AarA: Rhomboid protease AarA (Providencia stuartii, UniProt P46116)
UniProt P46116, sequence (whole entry, looked up): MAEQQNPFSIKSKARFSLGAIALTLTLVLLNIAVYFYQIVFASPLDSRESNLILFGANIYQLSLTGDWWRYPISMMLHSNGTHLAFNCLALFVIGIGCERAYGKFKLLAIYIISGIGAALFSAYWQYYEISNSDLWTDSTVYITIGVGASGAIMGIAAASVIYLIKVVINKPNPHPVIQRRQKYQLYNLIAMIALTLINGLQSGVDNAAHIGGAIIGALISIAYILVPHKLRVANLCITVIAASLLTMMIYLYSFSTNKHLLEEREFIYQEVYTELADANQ
PPARG ligand-binding domain: Peroxisome proliferator-activated receptor gamma, ligand-binding domain (PPARG, Homo sapiens, UniProt P37231)
UniProt P37231, sequence (whole entry, looked up): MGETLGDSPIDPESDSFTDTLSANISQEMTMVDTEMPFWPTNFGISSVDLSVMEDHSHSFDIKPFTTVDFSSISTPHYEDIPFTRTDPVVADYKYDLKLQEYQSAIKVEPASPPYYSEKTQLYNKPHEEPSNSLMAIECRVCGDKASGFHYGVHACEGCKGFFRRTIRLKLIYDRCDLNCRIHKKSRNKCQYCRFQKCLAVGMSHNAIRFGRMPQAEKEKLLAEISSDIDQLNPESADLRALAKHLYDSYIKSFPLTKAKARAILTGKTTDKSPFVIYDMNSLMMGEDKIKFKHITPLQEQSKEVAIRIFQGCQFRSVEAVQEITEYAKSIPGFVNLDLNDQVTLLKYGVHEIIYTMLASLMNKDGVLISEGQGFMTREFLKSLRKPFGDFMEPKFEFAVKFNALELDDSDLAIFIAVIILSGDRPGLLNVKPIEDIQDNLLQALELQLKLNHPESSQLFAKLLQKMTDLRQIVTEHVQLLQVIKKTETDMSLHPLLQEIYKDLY
HDAC1: Histone deacetylase 1 (HDAC1, Homo sapiens, UniProt Q13547)
UniProt Q13547, sequence (whole entry, looked up): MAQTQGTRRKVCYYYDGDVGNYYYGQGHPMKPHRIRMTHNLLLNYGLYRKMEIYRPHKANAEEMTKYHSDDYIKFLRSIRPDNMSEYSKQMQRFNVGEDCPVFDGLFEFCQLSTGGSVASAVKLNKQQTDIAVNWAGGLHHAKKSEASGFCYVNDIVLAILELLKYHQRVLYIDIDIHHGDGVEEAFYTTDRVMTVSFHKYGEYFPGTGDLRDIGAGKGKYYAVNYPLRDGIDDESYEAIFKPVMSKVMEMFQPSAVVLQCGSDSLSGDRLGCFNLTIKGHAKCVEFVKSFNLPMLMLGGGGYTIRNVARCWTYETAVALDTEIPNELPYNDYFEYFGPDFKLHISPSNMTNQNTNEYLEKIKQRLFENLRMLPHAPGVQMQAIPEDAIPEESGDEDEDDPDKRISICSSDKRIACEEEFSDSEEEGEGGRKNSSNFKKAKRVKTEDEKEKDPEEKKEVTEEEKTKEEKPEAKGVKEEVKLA
PPARG: Peroxisome proliferator-activated receptor gamma (PPARG, Homo sapiens, UniProt P37231)
UniProt P43358, sequence (whole entry, looked up): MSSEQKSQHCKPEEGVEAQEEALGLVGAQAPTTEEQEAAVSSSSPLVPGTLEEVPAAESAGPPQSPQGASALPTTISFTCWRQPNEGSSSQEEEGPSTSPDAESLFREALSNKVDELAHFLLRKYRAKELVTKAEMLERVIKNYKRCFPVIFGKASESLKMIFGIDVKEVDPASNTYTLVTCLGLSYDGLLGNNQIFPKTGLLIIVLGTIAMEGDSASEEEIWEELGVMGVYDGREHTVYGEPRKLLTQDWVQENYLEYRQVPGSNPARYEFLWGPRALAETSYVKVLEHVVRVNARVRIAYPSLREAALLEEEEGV
UniProt O08914, sequence (whole entry, looked up): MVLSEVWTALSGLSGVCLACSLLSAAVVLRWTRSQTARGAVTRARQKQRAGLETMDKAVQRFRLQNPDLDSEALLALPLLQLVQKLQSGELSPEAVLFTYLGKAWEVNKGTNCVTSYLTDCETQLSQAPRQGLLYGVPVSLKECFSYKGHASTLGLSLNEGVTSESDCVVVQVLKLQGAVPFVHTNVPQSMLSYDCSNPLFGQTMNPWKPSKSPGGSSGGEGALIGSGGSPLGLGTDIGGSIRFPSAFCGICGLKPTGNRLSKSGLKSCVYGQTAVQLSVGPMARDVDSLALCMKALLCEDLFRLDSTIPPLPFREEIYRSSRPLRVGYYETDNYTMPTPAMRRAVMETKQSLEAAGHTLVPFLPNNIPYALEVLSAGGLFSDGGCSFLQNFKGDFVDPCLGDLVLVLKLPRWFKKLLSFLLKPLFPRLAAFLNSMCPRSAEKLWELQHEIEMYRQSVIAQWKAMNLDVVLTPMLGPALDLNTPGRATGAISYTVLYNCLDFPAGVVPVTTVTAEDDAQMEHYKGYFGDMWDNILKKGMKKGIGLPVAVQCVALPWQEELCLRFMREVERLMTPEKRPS
UniProt Q92793, sequence (whole entry, looked up): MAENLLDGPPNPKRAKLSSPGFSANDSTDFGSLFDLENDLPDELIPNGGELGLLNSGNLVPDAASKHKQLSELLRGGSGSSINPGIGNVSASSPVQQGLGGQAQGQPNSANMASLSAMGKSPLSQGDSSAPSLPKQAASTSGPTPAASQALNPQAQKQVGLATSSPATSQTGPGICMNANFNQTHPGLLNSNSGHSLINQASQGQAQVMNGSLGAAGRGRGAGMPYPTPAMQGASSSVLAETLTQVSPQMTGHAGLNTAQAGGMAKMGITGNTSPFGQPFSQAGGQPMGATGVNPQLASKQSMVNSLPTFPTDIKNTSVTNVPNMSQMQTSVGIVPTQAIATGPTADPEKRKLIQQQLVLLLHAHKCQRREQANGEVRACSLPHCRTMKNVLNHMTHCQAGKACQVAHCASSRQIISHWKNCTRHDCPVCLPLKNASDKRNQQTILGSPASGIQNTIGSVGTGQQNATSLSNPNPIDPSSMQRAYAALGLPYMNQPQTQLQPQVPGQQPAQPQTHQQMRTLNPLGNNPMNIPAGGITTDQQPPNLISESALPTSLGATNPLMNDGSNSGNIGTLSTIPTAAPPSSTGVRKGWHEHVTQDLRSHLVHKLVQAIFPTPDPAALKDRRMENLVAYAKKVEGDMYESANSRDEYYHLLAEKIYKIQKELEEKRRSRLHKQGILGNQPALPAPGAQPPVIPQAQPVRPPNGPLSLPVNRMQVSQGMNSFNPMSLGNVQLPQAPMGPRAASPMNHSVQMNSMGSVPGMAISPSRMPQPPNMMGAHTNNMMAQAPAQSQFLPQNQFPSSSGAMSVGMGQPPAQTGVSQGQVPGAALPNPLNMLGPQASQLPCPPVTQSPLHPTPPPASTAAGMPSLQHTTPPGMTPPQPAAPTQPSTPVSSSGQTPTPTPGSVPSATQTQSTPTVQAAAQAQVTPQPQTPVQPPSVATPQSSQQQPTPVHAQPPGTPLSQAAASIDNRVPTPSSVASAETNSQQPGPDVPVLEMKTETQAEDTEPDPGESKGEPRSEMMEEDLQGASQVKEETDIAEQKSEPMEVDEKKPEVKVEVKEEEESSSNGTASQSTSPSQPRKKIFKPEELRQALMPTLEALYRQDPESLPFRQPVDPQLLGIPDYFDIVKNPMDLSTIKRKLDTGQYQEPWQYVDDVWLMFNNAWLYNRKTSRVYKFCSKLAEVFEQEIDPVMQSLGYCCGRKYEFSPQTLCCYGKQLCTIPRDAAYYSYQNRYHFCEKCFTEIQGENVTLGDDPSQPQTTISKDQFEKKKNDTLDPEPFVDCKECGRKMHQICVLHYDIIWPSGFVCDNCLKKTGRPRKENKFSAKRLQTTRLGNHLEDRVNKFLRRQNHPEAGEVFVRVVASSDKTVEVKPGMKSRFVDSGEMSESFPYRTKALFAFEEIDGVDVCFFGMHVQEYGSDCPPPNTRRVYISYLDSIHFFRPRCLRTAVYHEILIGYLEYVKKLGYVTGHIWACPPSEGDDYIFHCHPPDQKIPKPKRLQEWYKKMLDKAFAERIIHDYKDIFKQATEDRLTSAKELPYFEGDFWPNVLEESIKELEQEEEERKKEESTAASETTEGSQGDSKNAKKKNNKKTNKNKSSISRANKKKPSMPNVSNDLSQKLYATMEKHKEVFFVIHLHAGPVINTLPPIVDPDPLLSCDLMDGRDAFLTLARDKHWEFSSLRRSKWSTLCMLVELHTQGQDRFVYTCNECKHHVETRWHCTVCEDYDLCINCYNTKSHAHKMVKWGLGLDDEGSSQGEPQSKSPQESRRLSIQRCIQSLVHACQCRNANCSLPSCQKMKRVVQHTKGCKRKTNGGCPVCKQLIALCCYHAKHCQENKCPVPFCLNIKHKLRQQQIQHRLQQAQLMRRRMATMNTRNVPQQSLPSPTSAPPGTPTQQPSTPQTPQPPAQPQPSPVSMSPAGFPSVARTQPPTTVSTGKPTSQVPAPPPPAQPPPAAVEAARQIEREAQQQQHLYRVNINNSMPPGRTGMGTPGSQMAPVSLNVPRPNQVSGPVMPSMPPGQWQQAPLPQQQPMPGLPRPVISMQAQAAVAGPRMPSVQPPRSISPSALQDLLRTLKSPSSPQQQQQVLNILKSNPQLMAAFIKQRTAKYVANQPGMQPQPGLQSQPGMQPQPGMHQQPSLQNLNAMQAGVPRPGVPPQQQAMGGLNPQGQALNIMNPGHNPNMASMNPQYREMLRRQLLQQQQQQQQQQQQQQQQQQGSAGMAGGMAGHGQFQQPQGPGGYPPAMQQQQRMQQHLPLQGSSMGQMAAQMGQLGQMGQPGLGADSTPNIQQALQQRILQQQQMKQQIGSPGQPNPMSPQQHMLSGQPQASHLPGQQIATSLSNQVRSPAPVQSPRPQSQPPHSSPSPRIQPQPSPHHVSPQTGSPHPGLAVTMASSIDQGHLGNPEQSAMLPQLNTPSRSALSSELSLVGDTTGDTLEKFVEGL
UniProt P51681, sequence (whole entry, looked up): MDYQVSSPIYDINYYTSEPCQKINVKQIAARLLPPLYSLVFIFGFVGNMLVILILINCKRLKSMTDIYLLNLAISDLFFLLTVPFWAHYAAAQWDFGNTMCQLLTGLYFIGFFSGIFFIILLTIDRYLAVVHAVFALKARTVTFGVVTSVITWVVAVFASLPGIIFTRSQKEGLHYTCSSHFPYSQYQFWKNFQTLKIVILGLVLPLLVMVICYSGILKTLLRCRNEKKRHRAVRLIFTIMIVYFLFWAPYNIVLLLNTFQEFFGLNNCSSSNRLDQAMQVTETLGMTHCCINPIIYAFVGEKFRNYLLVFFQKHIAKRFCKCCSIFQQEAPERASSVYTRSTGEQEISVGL

SMILES = O=C(CCNC(=O)CNC(=O)CC(c1ccccc1)(c1ccccc1)c1ccccc1)NC[C@@H]1CCCN(Cc2ccc(F)cc2)C1; target = CHRM4 (Homo sapiens, UniProt P08173); assay = ligand displacement, radioligand; conditions = cell membranes; IC50 = 21.5 µM
SMILES = C[C@H]1[C@@H](O)O[C@@H]2O[C@@]3(C)CC[C@H]4[C@H](C)CC[C@@H]1[C@@]24OO3; target = MCL1 (Homo sapiens, UniProt Q07820); assay = binding, inhibitor, fluorescence polarization; conditions = added: labeled Bid-BH3 peptide; IC50 = > 200 µM
SMILES = CC[C@H](C)[C@@H]1NC(=O)[C@H](Cc2ccc(O)cc2)NC(=O)CSCCNC(=O)[C@H](CC(N)=O)NC(=O)[C@H](Cc2c[nH]cn2)NC(=O)[C@H](Cc2ccc(O)cc2)NC(=O)[C@H](CC(=O)O)NC(=O)[C@H](Cc2ccc(O)cc2)NC(=O)[C@H](CC(C)C)NC(=O)[C@H](CCCNC(=N)N)NC1=O; target = Melanoma-associated antigen 4, MAGE homology domain (Homo sapiens, UniProt P43358); assay = binding, inhibitor, TR-FRET displacement; conditions = added: Alexa647-MTP-1; IC50 = 0.0427 ± 0.0096 µM
SMILES = CC(C)(C)c1ccc(NC(=O)C(C(F)(F)F)C(F)(F)F)cc1; target = Rhomboid protease AarA; assay = enzyme activity, inhibitor, fluorescence; IC50 = 6.5 µM
SMILES = Cc1c(Cc2cccc(OC(C)(C)C(=O)O)c2)c2ccc(C(=O)NCc3ccc(C(C)(C)C)cc3)cc2n1CC1CCC1; target = PPARG ligand-binding domain; assay = reporter gene, luciferase reporter; test system = HEK293T, Gal4-PPARγ LBD; IC50 = 0.23 µM
SMILES = Cc1nc2c(F)cc(-c3nc(Nc4ccc(C(=O)NCCCC(=O)NO)cc4)ncc3F)cc2n1C(C)C; target = HDAC1; assay = enzyme activity, inhibitor; IC50 = 0.1 µM
SMILES = C[C@@H]1Cc2c([nH]c3ccccc23)[C@@H](c2c(F)cc(/C=C/C(=O)O)cc2F)N1C12CC(C1)C2; target = PGR (Homo sapiens, UniProt P06401); assay = PR receptor activity, agonist, cell-based; IC50 = > 10 µM
SMILES = Cc1c(Cc2cccc(OC(C)(C)C(=O)O)c2)c2ccc(C(=O)N[C@H](C)c3cccc(C(C)(C)C)c3)cc2n1C; target = PPARG; assay = ligand displacement, TR-FRET; IC50 = 0.002 µM
SMILES = Cc1nnc(C(C)C)n1C1CC2CCC(C1)N2CCC(NC(=O)COCCOCCNC(=O)Cc1ccc(-c2nncnn2)cc1)c1ccccc1 (stereo not shown); target = CCR5 (Homo sapiens, UniProt P51681); assay = calcium mobilization, antagonist; test system = HEK-293T; conditions = 2 h preincubation, top constrained to 1, added: 0.1 µM PSC-RANTES; IC50 = 0.437 µM
SMILES = O=C1CC(c2ccc(Br)cc2)N1S(=O)(=O)c1cccc(Cl)c1 (stereo not shown); target = Rhomboid protease AarA; assay = enzyme activity, inhibitor, fluorescence; IC50 = 18.6 µM
SMILES = Cn1c(C(=O)NCCN2CCCCCC2)cc2c(=O)n(C)c3ccccc3c21; target = Cruzipain (Trypanosoma cruzi, UniProt P25779); assay = enzyme activity, inhibitor; IC50 = 25 µM
SMILES = Cc1nc2cc(C(=O)N[C@@H](C)c3ccc(C(C)(C)C)cc3)ccc2n1Cc1cc(Cl)cc(O[C@H](C)C(=O)O)c1; target = PPARG; assay = ligand displacement, TR-FRET; IC50 = 0.0371 µM
SMILES = N#CN1CC[C@H](C(=O)Nc2ncc(N3CCOCC3)s2)C1; target = Papain (Carica papaya, UniProt P00784); assay = enzyme activity, inhibitor, fluorescence; IC50 = 10.7 µM
SMILES = O=C1C(Cl)=C(NCCNCCO)C(=O)c2ccccc21; target = NSD2 (Homo sapiens, UniProt O96028); assay = enzyme activity, inhibitor, AlphaLISA; IC50 = 0.12 µM
SMILES = CC(C)(Oc1ccc(Cl)cc1)C(=O)O; target = Taste receptor type 1 member 3, with T1R1 (TAS1R3, Homo sapiens, UniProt Q7RTX0, Q794N); IC50 = 460 µM
SMILES = O=C1Nc2c(Br)cccc2/C1=C1/Nc2ccccc2C1=NO; target = MAPK1 (Homo sapiens, UniProt P28482); IC50 = > 10 µM
SMILES = Cc1cc(C(=O)NCC(F)(F)c2ccc(Cl)cc2Cl)c(Oc2cccc(C3CC3)c2)nn1; target = serine palmitoyltransferase (Zymoseptoria tritici, UniProt F9X349+F9XMN6); IC50 = 2.61 ± 0.085 µM
SMILES = CC(C)Oc1ccccc1NC(=O)C(C(F)(F)F)C(F)(F)F; target = Rhomboid protease AarA; assay = enzyme activity, inhibitor, fluorescence; IC50 = 2.3 µM
SMILES = Cc1c(Cc2cccc(OC(C)C(=O)O)c2)c2ccc(C(=O)NC(C)c3cccc(C4CC4)c3)cc2n1C (mixture of isomers); target = PPARG ligand-binding domain; assay = reporter gene, luciferase reporter; test system = HEK293T, Gal4-PPARγ LBD; IC50 = 2.06 µM
SMILES = COc1cc(-c2cc(C(C)=O)n3ccccc23)c(OC)cc1Cn1ccnc1; target = CREBBP (Homo sapiens, UniProt Q92793); assay = inhibitor; IC50 = 0.69 µM
SMILES = Cc1c(Cc2ccc(OC(C)C(=O)O)cc2Cl)c2ccc(C(=O)NC(C)c3ccc(C(C)(C)C)cc3)cc2n1C (stereo not shown); target = PPARG ligand-binding domain; assay = reporter gene, luciferase reporter; test system = HEK293T, Gal4-PPARγ LBD; IC50 = 35.1 µM
SMILES = N#Cc1ccc(-c2cnc(C(=O)CCCCCCc3ccccc3)o2)nc1; target = Faah (Mus musculus, UniProt O08914); assay = enzyme activity, inhibitor; conditions = with preincubation; IC50 = < 0.01 µM
SMILES = Cc1cncn1Cc1ccc(Nc2cccc(F)c2)cc1; target = Glutaminyl-peptide cyclotransferase-like protein (Homo sapiens, UniProt Q9NXS2); IC50 = 0.89 µM
SMILES = Cc1nc2c(F)cc(-c3nc(Nc4ccc(NC(=O)CCCC(=O)NO)cc4)ncc3F)cc2n1C(C)C; target = HDAC1; assay = enzyme activity, inhibitor; IC50 = 0.091 µM
SMILES = Cc1ncc2c(n1)CN(C(=O)Nc1nc(-c3cccs3)ccc1N)C2; target = Lysine-specific histone demethylase 1A, with CoREST (KDM1A, Homo sapiens, UniProt O60341); assay = demethylase activity, inhibitor; conditions = LSD1-CoREST complex; IC50 = > 150 µM
SMILES = O=C(Nc1ccccc1OCC1CC1)C(C(F)(F)F)C(F)(F)F; target = Rhomboid protease AarA; assay = enzyme activity, inhibitor, fluorescence; IC50 = 1 µM
SMILES = Cc1c(Cc2cccc(OC(C)(C)C(=O)O)c2)c2ccc(C(=O)N[C@@H](C)c3cccc(C(F)(F)F)c3)cc2n1C; target = PPARG ligand-binding domain; assay = reporter gene, luciferase reporter; test system = HEK293T, Gal4-PPARγ LBD; IC50 = 0.5 µM
SMILES = O=C1CC(c2ccccc2)N1S(=O)(=O)Cc1ccccc1 (stereo not shown); target = Rhomboid protease AarA; assay = enzyme activity, inhibitor, fluorescence; IC50 = 371 µM
SMILES = Cc1c(Cc2ccc(Cl)c(OCC(=O)O)c2)c2ccc(C(=O)NCc3ccc(C(C)(C)C)cc3)cc2n1C; target = PPARG; assay = ligand displacement, TR-FRET; IC50 = 0.00554 µM
SMILES = CC(C)CCOc1ccccc1NC(=O)C(C(F)(F)F)C(F)(F)F; target = Rhomboid protease AarA; assay = enzyme activity, inhibitor, fluorescence; IC50 = 2.2 µM
SMILES = Cc1c(Cc2cccc(OC(C(=O)O)C3CC3)c2)c2ccc(C(=O)NC(C)c3cccc(C(C)(C)C)c3)cc2n1C (mixture of isomers); target = PPARG ligand-binding domain; assay = reporter gene, luciferase reporter; test system = HEK293T, Gal4-PPARγ LBD; IC50 = 23.9 µM
SMILES = Cc1nn(-c2cccc(N)c2)c(=O)c2cnc(Nc3ccc(N4CCNCC4)cc3)nc12; target = PRKG1 (Homo sapiens, UniProt Q13976); assay = enzyme activity, inhibitor; IC50 = 1.32 µM
SMILES = O=C(NCc1ccc(N2CCOCC2)cc1)C(C(F)(F)F)C(F)(F)F; target = Rhomboid protease AarA; assay = enzyme activity, inhibitor, fluorescence; IC50 = 25 µM
SMILES = Cc1nc(S(=O)(=O)Nc2cc3c(cc2Oc2cccc(COCC(C)C)c2)n(C)c(=O)n3C)cn1C; target = Peregrin, bromodomain (BRPF1, Homo sapiens, UniProt P55201); IC50 = 0.323 µM

Repeated from above:
SMILES = Cc1nnc(C(C)C)n1C1CC2CCC(C1)N2CCC(NC(=O)COCCOCCNC(=O)Cc1ccc(-c2nncnn2)cc1)c1ccccc1 (stereo not shown); target = CCR5 (Homo sapiens, UniProt P51681); assay = calcium mobilization, antagonist; test system = HEK-293T; conditions = 2 h preincubation, top constrained to 1, added: 0.1 µM PSC-RANTES; IC50 = 0.437 µM
SMILES = N#Cc1ccc(-c2cnc(C(=O)CCCCCCc3ccccc3)o2)nc1; target = Faah (Mus musculus, UniProt O08914); assay = enzyme activity, inhibitor; conditions = with preincubation; IC50 = < 0.01 µM
SMILES = Cc1c(Cc2cccc(OC(C)(C)C(=O)O)c2)c2ccc(C(=O)NCc3ccc(C(C)(C)C)cc3)cc2n1CC1CCC1; target = PPARG ligand-binding domain; assay = reporter gene, luciferase reporter; test system = HEK293T, Gal4-PPARγ LBD; IC50 = 0.23 µM
SMILES = Cc1nc(S(=O)(=O)Nc2cc3c(cc2Oc2cccc(COCC(C)C)c2)n(C)c(=O)n3C)cn1C; target = Peregrin, bromodomain (BRPF1, Homo sapiens, UniProt P55201); IC50 = 0.323 µM
SMILES = Cc1nc2c(F)cc(-c3nc(Nc4ccc(C(=O)NCCCC(=O)NO)cc4)ncc3F)cc2n1C(C)C; target = HDAC1; assay = enzyme activity, inhibitor; IC50 = 0.1 µM
